Published values collected from several papers.
A part holds a random share of what one study measured. pEC50: −log10 of the molar value.
Chain of UniProt P42681 (whole entry, looked up): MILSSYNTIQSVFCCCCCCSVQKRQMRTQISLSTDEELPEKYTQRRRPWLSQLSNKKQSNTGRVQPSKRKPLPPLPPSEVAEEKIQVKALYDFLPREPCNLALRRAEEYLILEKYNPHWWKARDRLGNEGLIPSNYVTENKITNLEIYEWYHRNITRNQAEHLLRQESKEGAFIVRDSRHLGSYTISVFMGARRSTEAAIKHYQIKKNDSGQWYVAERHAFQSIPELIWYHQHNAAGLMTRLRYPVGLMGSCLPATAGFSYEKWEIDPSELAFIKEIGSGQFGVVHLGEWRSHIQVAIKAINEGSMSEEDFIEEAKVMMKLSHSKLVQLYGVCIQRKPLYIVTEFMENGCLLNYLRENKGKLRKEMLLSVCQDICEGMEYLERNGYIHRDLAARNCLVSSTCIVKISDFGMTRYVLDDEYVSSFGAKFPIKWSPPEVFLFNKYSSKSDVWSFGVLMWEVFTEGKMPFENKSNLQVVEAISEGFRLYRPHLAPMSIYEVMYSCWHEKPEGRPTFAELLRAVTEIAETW
Chain of UniProt P07332 (whole entry, looked up): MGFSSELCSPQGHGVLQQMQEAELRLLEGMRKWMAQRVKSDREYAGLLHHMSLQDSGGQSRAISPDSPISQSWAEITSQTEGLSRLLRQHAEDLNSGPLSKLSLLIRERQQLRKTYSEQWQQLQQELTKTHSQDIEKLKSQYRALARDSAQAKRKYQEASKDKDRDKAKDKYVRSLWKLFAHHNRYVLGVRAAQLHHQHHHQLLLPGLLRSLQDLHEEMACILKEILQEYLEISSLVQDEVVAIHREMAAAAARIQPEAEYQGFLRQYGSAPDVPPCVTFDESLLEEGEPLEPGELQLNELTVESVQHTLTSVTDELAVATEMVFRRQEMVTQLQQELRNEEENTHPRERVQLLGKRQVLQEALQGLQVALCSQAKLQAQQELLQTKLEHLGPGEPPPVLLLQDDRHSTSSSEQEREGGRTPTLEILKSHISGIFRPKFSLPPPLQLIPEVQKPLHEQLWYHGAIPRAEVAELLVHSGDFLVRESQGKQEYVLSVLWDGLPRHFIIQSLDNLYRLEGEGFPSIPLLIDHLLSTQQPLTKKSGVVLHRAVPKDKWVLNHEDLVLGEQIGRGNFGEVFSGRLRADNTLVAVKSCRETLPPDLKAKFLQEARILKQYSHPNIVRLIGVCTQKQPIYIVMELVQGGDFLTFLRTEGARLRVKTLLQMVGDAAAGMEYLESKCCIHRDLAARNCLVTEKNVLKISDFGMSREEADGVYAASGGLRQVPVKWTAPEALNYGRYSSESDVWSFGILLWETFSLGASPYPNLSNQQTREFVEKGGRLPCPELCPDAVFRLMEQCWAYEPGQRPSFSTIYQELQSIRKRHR
Chain of UniProt P00519 (whole entry, unmodified, looked up): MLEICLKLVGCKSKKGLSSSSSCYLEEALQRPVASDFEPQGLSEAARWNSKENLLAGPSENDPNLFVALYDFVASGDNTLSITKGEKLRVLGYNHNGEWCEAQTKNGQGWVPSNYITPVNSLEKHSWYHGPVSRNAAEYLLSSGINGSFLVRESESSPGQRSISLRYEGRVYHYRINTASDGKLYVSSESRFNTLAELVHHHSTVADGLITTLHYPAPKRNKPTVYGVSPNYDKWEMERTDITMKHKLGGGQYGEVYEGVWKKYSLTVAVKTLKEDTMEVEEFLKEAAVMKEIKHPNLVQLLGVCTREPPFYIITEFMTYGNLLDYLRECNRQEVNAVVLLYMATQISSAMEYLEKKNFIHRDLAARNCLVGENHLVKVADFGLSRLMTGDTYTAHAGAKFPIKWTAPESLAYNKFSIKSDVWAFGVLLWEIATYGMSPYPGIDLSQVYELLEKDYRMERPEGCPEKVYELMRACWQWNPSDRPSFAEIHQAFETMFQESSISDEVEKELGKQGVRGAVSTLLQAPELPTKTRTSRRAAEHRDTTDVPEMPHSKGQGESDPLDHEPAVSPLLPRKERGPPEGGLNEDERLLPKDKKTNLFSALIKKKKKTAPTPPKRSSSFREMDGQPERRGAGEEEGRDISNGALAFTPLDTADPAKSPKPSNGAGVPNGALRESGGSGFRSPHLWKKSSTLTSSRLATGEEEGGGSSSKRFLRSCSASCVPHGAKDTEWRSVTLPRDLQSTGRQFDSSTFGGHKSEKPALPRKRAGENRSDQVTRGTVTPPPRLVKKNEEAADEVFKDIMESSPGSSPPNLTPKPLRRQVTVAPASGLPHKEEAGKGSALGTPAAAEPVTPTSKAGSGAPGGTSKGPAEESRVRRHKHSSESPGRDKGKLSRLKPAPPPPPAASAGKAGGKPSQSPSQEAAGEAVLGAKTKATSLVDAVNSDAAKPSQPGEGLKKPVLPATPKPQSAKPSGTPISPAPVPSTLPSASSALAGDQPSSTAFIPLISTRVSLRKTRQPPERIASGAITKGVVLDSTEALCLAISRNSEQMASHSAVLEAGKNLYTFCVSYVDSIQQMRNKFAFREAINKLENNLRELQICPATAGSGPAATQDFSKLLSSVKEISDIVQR
Chain of UniProt Q02750 (whole entry, looked up): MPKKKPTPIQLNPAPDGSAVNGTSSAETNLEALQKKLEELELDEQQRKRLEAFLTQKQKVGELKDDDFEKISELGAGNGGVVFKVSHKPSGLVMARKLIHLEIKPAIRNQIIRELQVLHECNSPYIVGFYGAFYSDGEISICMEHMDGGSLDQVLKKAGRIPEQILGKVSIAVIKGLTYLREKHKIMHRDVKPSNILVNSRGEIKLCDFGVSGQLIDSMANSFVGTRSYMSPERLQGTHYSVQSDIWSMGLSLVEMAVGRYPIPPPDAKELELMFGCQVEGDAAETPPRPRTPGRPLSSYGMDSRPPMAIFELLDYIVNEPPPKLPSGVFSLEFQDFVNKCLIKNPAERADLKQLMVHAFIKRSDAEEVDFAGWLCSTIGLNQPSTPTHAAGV

Sample 1
Structure (SMILES): O=C(Nc1ccccc1)Nc1cccc(Oc2ccc3nccn3n2)c1
Tested at: 1 µM
target	assay	conditions	how to read	remaining binding [%]
HIPK3 (Homo sapiens, UniProt Q9H422)	competitive binding panel	–	reference: vehicle	100
KIT (Homo sapiens, UniProt P10721, T670I/V559D)	competitive binding panel	–	reference: vehicle	80
LRRK2 (Homo sapiens, UniProt Q5S007)	competitive binding panel	–	reference: vehicle	100
NUAK2 (Homo sapiens, UniProt Q9H093)	competitive binding	SNARK	–	100
MST1R (Homo sapiens, UniProt Q04912)	competitive binding panel	–	reference: vehicle	100
FES (Homo sapiens, UniProt P07332)	competitive binding panel	–	reference: vehicle	100
JAK1 (Homo sapiens, UniProt P23458)	competitive binding panel	–	reference: vehicle	95
DAPK2 (Homo sapiens, UniProt Q9UIK4)	competitive binding panel	–	reference: vehicle	100
MAP2K1 (Homo sapiens, UniProt Q02750)	competitive binding	MEK1	–	100
STK10 (Homo sapiens, UniProt O94804)	competitive binding	LOK	–	82
STK35 (Homo sapiens, UniProt Q8TDR2)	competitive binding panel	–	reference: vehicle	89
NUAK1 (Homo sapiens, UniProt O60285)	competitive binding panel, measured: ARK5	–	reference: vehicle	100
MAPK15 (Homo sapiens, UniProt Q8TD08)	competitive binding panel, measured: ERK8	–	reference: vehicle	100

Sample 2
Target: Serine/threonine-protein kinase VRK1 (VRK1, Homo sapiens, UniProt Q99986)
Chain of UniProt Q99986 (whole entry, looked up): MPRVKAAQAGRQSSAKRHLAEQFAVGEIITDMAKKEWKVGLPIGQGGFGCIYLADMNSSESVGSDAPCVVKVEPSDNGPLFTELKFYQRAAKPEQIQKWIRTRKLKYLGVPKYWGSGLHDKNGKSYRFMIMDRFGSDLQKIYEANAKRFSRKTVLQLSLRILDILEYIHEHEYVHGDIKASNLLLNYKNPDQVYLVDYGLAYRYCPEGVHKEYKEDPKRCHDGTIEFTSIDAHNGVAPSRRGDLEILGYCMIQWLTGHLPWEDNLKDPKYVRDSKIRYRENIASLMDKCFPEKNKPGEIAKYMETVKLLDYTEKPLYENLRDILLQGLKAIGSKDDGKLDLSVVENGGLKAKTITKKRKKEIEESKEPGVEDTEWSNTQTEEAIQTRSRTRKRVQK
Effect on: enzyme activity
Action: inhibitor
Tested at: 0.5 µM
Reference: control
Compound	remaining activity
O=C1c2ccccc2-c2nc3nnnn3nc21	90.5%
C[C@@H](N)[C@H]1CC[C@H](C(=O)Nc2ccncc2)CC1	101%
CNc1cc2c(Nc3cccc(Br)c3)ncnc2cn1	90.2%
O=C(c1ccccc1)c1ccc(N2CCOCC2)cc1O	89.7%
FC(F)(F)c1ccc(/C=C/c2nc(COc3ccc(CCCCn4ccnn4)cc3)co2)cc1	99.8%
CCN(CC)CCCCN1c2ccccc2Oc2ccc(Cl)cc21	101%
O=c1c(-c2ccc(F)cc2)c(-c2ccncc2)[nH]n1-c1ccc(Cl)cc1	92.9%
CC(C)N(CCC(=O)c1ccc2ccccc2c1)Cc1ccccc1	95.8%
CC(C)(C)c1nc2c3cc[nH]c(=O)c3c3cc(F)ccc3c2[nH]1	82.2%
NC(=O)c1cccc(-c2cc(Nc3ccc(OC(F)(F)F)cc3)ncn2)c1	97.9%
O=C1NC(=O)/C(=C/c2ccc3c(c2)OC(F)(F)O3)S1	85.6%
NC(=O)c1ccc(-c2nc(-c3ccc4c(c3)OCCO4)c(-c3ccccn3)[nH]2)cc1	92.6%
COc1cc2c(Nc3ccc(Br)cc3F)ncnc2cc1OCC1CCN(C)CC1	98.9%
N#C/C(=C(/N)SC1C=CC=CC1)c1cccc(C(O)c2ccncc2)c1 (stereo not drawn)	95.9%
CCCCc1c(-c2ccc(O)cc2)[nH]c2nccnc12	87.9%
O=C(O)/C=C/c1cc(Br)c(Br)c(Br)c1Br	89.8%
Clc1ccc(Nc2nnc(Cc3ccncc3)c3ccccc23)cc1	109%
N#CC(c1ccnc(NCCc2cccnc2)n1)c1nc2ccccc2s1 (stereo not drawn)	94.1%
c1cc(-c2cnn3cc(-c4ccc(OCCN5CCCCC5)cc4)cnc23)ccn1	86%
Nc1nc(Nc2ccc(S(N)(=O)=O)cc2)nn1C(=S)Nc1c(F)cccc1F	94.6%
CC(C)n1cnc2c(Nc3cccc(Cl)c3)nc(NCCO)nc21	96.3%
COc1cc2c(N3CCN(C(=O)Nc4ccc(OC(C)C)cc4)CC3)ncnc2cc1OCCCN1CCCCC1	100%
O=Nc1c(-c2c(O)[nH]c3ccccc23)[nH]c2ccccc12	86.3%

Sample 3
Target: Beta-1 adrenergic receptor (ADRB1, Homo sapiens, UniProt P08588)
Chain of UniProt P08588 (whole entry, looked up): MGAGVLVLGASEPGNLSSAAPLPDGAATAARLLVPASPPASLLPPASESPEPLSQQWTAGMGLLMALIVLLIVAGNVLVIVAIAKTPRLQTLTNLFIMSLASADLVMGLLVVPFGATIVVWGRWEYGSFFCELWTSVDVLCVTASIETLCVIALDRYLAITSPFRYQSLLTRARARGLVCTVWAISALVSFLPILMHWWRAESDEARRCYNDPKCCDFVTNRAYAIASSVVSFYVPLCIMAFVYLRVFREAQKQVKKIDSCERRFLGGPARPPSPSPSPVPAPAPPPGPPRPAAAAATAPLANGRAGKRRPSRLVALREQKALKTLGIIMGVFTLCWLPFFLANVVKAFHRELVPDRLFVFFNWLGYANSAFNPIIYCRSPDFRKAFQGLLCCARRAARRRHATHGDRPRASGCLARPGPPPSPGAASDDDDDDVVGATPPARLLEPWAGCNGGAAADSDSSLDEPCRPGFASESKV
Action: agonist
SMILES	pEC50
CC(=O)Oc1c(C)cc(OCC(O)CNC(C)C)c(C)c1C (stereo not drawn)	≤ 4.00
Cc1cc2ncn(-c3ccc4ccccc4n3)c2cc1C	≤ 4.00
NCC(Cc1ccc(O)cc1)c1ccc(O)cc1 (stereo not drawn)	≤ 4.00
COc1ccccc1N1CCN(C(=O)c2ccc3[nH]c(C)c(C)c3c2)CC1	≤ 4.00
COc1ccc2c(O[C@H]3CC4C(=O)N(C)CCCCC=C[C@@H]5C[C@@]5(C(=O)N[S+](=O)([O-])C5CC5)NC(=O)[C@@H]4C3)cc(-c3nc(C(C)C)cs3)nc2c1C (stereo partly drawn)	≤ 4.00
CCOc1ccccc1N1CCN([S+](=O)([O-])c2cc(Cl)ccc2Cl)CC1	≤ 4.00
C=C(F)c1sc(CNCCCNc2cc(=O)c3ccccc3[nH]2)c(C)c1Br	≤ 4.00
O=C1COC[C@H]([C@H](O)c2ccc(NC(=O)c3ccccc3)cc2)N1	≤ 4.00
COc1cccc2ccc(-c3nccn3CC3(CO)CCOCC3)nc12	≤ 4.00
CC1=CCN(Cc2ccc(OCC(O)CN3CCN(C)CC3)cc2)CC1 (stereo not drawn)	≤ 4.00
Cc1noc2c(-c3cccnc3NCc3cnccn3)cc(-c3ccccc3)nc12	≤ 4.00
O=C(Nc1nc(-c2ccccc2OC(F)F)cs1)c1cnccn1	≤ 4.00
Fc1ccc(-c2ccc3ncc(Nc4cc(F)cc(N5CCOCC5)c4)n3n2)cc1	≤ 4.00
COc1ccc(-c2cnc3[nH]nc(-c4ccc(F)cc4C)c3n2)cn1	≤ 4.00
COc1cc([S+](=O)([O-])N2CCN(c3ccccc3OC)CC2)c(C)cc1C	≤ 4.00
CCOc1cccc(C(=O)N2CCN(c3ccccc3OC)CCC2C)c1 (stereo not drawn)	≤ 4.00
CN(C)c1ccc(Nc2ncnc3sc4c(c23)CCCC4)cc1	≤ 4.00

Sample 4
SMILES: CC(=O)Nc1c(C(C)=O)c(=O)n(C)c2nc(-c3ccc(Cl)cc3Cl)c(-c3ccc(Cl)cc3)cc12
Tested at: 1 µM
target	assay	remaining binding
PLK1 (Homo sapiens, UniProt P53350)	cell-free assay, competition with immobilised ligand	100%
Receptor-type tyrosine-protein kinase FLT3, autoinhibited (FLT3, Homo sapiens, UniProt P36888)	cell-free assay, competition with immobilised ligand	100%
EPHA7 (Homo sapiens, UniProt Q15375)	cell-free assay, competition with immobilised ligand	100%
MAP3K15 (Homo sapiens, UniProt Q6ZN16)	cell-free assay, competition with immobilised ligand	100%
AAK1 (Homo sapiens, UniProt Q2M2I8)	binding	100%
CDK19 (Homo sapiens, UniProt Q9BWU1)	competition binding	100%
CSNK2A2 (Homo sapiens, UniProt P19784)	cell-free assay, competition with immobilised ligand	100%
MAP3K4 (Homo sapiens, UniProt Q9Y6R4)	cell-free assay, competition with immobilised ligand	89%
EGFR (Homo sapiens, UniProt P00533, L858R)	cell-free assay, competition with immobilised ligand	100%
CSNK1A1L (Homo sapiens, UniProt Q8N752)	cell-free assay, competition with immobilised ligand	100%
MET (Homo sapiens, UniProt P08581, Y1235D)	cell-free assay, competition with immobilised ligand	100%
MKNK2 (Homo sapiens, UniProt Q9HBH9)	cell-free assay, competition with immobilised ligand	100%
MAP4K2 (Homo sapiens, UniProt Q12851)	cell-free assay, competition with immobilised ligand	92%
BMPR2 (Homo sapiens, UniProt Q13873)	cell-free assay, competition with immobilised ligand	100%
TXK (Homo sapiens, UniProt P42681)	binding, competition with immobilised ligand	100%
WEE1 (Homo sapiens, UniProt P30291)	cell-free assay, competition with immobilised ligand	100%
SBK1 (Homo sapiens, UniProt Q52WX2)	cell-free assay, competition with immobilised ligand	80%
STK32C (Homo sapiens, UniProt Q86UX6)	cell-free assay, competition with immobilised ligand	100%
Ribosomal protein S6 kinase alpha-2, N-terminal kinase domain (RPS6KA2, Homo sapiens, UniProt Q15349)	cell-free assay, competition with immobilised ligand	100%
Tyrosine-protein kinase ABL1, non-phosphorylated (ABL1, Homo sapiens, UniProt P00519, F317L)	cell-free assay, competition with immobilised ligand	100%
TAOK3 (Homo sapiens, UniProt Q9H2K8)	cell-free assay, competition with immobilised ligand	63%
BMPR1B (Homo sapiens, UniProt O00238)	cell-free assay, competition with immobilised ligand	100%
NEK3 (Homo sapiens, UniProt P51956)	cell-free assay, competition with immobilised ligand	100%
WNK3 (Homo sapiens, UniProt Q9BYP7)	cell-free assay, competition with immobilised ligand	100%
CDC42BPB (Homo sapiens, UniProt Q9Y5S2)	cell-free assay, competition with immobilised ligand	100%

Repeated from above (sample 2):
Compound	remaining activity
O=C(c1ccccc1)c1ccc(N2CCOCC2)cc1O	89.7%
O=C1c2ccccc2-c2nc3nnnn3nc21	90.5%
C[C@@H](N)[C@H]1CC[C@H](C(=O)Nc2ccncc2)CC1	101%
c1cc(-c2cnn3cc(-c4ccc(OCCN5CCCCC5)cc4)cnc23)ccn1	86%
CCN(CC)CCCCN1c2ccccc2Oc2ccc(Cl)cc21	101%
